Measurements pooled from the literature.
Protocols differ between the studies behind these lines. ± gives the spread as reported.
Chain of UniProt Q16644 (whole entry, looked up): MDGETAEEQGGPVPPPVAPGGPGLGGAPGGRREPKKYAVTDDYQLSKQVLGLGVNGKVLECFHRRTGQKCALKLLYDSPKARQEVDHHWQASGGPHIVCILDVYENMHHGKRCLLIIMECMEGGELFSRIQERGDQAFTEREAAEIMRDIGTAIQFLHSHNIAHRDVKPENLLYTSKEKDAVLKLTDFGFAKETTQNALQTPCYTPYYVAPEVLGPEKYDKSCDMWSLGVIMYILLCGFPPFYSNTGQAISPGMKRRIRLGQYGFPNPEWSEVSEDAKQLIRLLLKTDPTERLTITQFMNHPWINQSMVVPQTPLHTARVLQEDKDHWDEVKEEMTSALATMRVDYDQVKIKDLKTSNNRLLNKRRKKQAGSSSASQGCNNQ
Chain of UniProt Q9NRH2 (whole entry, looked up): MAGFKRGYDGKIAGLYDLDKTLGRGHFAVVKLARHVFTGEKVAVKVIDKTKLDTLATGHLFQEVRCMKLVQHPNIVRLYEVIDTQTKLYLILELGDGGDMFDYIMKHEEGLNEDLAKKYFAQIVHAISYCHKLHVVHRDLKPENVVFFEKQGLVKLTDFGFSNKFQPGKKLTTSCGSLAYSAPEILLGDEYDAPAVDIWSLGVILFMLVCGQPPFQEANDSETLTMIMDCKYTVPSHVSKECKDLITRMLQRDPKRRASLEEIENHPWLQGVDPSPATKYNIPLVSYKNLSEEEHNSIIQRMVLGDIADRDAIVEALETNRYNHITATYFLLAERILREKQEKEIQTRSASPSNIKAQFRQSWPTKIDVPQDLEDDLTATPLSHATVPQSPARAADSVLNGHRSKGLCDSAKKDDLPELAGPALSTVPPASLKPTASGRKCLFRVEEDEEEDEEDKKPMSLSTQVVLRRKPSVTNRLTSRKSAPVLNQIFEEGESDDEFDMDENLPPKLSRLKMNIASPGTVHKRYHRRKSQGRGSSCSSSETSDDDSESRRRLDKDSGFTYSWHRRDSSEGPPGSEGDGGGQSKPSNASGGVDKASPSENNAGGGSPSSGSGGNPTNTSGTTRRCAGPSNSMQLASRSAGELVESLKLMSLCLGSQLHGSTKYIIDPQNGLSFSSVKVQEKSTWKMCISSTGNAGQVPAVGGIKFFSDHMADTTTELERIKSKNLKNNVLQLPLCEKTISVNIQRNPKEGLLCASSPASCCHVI
Chain of UniProt Q9H422 (whole entry, looked up): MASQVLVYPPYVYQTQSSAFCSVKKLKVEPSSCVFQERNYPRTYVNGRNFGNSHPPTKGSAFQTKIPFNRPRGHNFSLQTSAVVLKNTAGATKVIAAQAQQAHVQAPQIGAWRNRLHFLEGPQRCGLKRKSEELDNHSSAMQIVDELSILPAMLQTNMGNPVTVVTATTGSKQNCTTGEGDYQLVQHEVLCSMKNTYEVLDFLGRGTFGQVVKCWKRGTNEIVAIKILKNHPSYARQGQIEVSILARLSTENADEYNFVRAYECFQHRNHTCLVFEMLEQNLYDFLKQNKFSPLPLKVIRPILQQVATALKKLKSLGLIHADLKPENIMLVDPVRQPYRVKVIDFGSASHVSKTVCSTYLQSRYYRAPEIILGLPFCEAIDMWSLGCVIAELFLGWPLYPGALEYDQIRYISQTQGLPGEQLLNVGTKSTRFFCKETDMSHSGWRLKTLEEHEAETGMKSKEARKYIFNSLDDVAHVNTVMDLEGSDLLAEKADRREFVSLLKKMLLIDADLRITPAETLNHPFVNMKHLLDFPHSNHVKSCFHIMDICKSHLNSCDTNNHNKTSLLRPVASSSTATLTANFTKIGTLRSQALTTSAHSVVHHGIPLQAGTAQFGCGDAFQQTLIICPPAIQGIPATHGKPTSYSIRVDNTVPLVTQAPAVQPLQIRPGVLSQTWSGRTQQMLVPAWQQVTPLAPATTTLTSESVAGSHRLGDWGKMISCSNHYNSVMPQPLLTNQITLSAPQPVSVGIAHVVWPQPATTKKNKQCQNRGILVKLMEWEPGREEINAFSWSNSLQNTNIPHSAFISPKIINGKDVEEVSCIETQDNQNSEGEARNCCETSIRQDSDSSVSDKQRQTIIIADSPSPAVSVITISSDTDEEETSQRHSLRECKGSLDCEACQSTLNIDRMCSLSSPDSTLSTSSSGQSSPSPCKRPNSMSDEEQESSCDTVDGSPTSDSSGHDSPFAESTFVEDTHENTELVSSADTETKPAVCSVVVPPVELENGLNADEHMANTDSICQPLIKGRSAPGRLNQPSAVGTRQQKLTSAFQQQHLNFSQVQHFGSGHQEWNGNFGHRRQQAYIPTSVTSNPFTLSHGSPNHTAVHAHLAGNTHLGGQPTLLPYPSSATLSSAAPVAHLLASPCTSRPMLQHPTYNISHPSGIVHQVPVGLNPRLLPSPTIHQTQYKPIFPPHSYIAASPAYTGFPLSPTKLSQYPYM
Chain of UniProt Q92630 (whole entry, looked up): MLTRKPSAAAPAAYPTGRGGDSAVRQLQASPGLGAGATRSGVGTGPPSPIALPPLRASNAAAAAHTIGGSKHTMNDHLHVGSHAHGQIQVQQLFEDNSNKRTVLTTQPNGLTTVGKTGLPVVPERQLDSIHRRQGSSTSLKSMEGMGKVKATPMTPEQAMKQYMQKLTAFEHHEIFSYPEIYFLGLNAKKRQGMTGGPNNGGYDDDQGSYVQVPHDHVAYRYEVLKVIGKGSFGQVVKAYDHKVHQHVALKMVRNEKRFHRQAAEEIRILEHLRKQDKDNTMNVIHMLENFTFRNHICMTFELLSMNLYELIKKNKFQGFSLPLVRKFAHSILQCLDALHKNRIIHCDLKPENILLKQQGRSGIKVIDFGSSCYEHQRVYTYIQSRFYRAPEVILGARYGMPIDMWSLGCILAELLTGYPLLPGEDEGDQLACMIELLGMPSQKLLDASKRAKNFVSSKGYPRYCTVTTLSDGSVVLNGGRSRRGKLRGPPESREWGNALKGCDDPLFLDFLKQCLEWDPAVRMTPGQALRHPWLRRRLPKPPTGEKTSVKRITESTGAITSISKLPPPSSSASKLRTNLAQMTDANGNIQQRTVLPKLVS

With `CC(C)[C@H]1NC(=O)C[C@H]2/C=C/CCSSC[C@@H](NC1=O)C(=O)N[C@H](Cc1cccc3ccccc13)C(=O)NCC(=O)O2` the inhibition was 1.7% (Dual specificity tyrosine-phosphorylation-regulated kinase 2 (DYRK2, Homo sapiens, UniProt Q92630); enzyme activity, inhibitor; 10 µM).
The remaining activity of `O=C1NC(=O)c2c1c1cc(F)c[n+]3c1c1c2c2cc(O)ccc2[n]1[Ru-4]312([N]=C=S)[S+]3CC[S+]1CC[S+]2CC3` (centres unmarked) is reported as 117% (MAP kinase-activated protein kinase 3 (MAPKAPK3, Homo sapiens, UniProt Q16644); enzyme activity; 100 nM, human enzyme, with: 10 µM ATP; reference: untreated).
For `O=C1NC2(CC2)COc2ncc(F)cc2[C@H]2COCCN2c2ccn3ncc1c3n2`, the body weight was 314 ± 41.6 g (Sprague-Dawley rat, female; oral, 20 mg/kg/day, end of treatment, 4-week repeated-dose toxicity).
For `Cc1ccccc1-c1ccc(-c2nc(-c3ccc(CN(C)CCCC(=O)O)c([18F])c3)no2)cc1C(F)(F)F`, the tracer uptake was 0.16 %ID/g (rat, muscle; 5 min).
`CS(C)(=O)=Nc1ccc(-c2ccc(-c3nc4cc(O[C@@H]5CO[C@H]6[C@@H]5OC[C@H]6O)[nH]c4cc3F)cc2)cc1` has an inhibition of 5% (Homeodomain-interacting protein kinase 3 (HIPK3, Homo sapiens, UniProt Q9H422); enzyme activity, inhibitor; 10 µM).
The AUC of `CN[C@H](CC(C)C)C(=O)N[C@H]1C(=O)N[C@@H](CC(N)=O)C(=O)N[C@H]2C(=O)N[C@H]3C(=O)N[C@H](C(=O)N[C@H](C(=O)O)c4cc(O)cc(O)c4-c4cc3ccc4O)[C@H](O)c3ccc(c(Cl)c3)Oc3cc2cc(c3O[C@@H]2O[C@H](CO)[C@@H](O)[C@H](O)[C@H]2O[C@H]2C[C@](C)(NCc3ccc(-c4ccc(Cl)cc4)cc3)[C@H](O)[C@H](C)O2)Oc2ccc(cc2Cl)[C@H]1O` is reported as 135000 ng·h/mL (mouse, plasma; intravenous, 10 mg/kg).
`CCCCCCCCCCCCCCCC(=O)N[C@@H](CCC(=O)NCCOCCOCCC(=O)NCCOCCOCCC(=O)NCCCC[C@H](NC(=O)[C@H](CC(=O)O)NC(=O)[C@H](CC(C)C)NC(=O)[C@H](Cc1ccc(O)cc1)NC(=O)[C@H](CCCCN)NC(=O)[C@H](CO)NC(=O)[C@H](Cc1ccc(O)cc1)NC(=O)[C@H](CC(=O)O)NC(=O)[C@H](CO)NC(=O)[C@@H](NC(=O)[C@H](Cc1ccccc1)NC(=O)[C@@H](NC(=O)CNC(=O)[C@H](CCC(N)=O)NC(=O)[C@@H](CO)NC(=O)[C@@H](N)Cc1c[nH]cn1)[C@@H](C)O)[C@@H](C)O)C(=O)N[C@@H](CCCNC(=N)N)C(=O)N[C@@H](CCCNC(=N)N)C(=O)N[C@@H](C)C(=O)N[C@@H](CCC(N)=O)C(=O)N[C@@H](CC(=O)O)C(=O)N[C@@H](Cc1ccccc1)C(=O)N[C@H](C(=O)N[C@@H](CCC(N)=O)C(=O)N[C@@H](Cc1c[nH]c2ccccc12)C(=O)N[C@@H](CC(C)C)C(=O)N[C@@H](CC(C)C)C(=O)N[C@@H](CC(N)=O)C(=O)N[C@H](C(=O)NCC(=O)NCC(=O)N1CCC[C@H]1C(=O)N[C@@H](CO)C(=O)N[C@@H](CO)C(=O)NCC(=O)N[C@@H](C)C(=O)N1CCC[C@H]1C(=O)N1CCC[C@H]1C(=O)N1CCC[C@H]1C(=O)N[C@@H](CO)C(N)=O)[C@@H](C)O)C(C)C)C(=O)O` gave a Tmax of 4 h (rhesus monkey, female; subcutaneous, 300 µg/kg, day 1, median).
For `CC(C)(C)C(=O)OCOP(=O)(OCOC(=O)C(C)(C)C)C1CCCN(O)C1=O` (centres unmarked), the log LC50 was -5.2 log M (SK-MEL-28).
`CCCCCn1ccc(C(=O)NC(C)(C)c2ccc(CNC(C)=O)cc2)n1`: “peripheral selectivity ratio” about 5 fold (mouse; dose not given; reference: plasma Cmax over brain Cmax).
With `COc1ccccc1-c1n[nH]c2nc(NC3CCN(C(=O)Cc4ccc(F)cc4F)CC3)ncc12` the relative abundance was 1.09 (bead binding, competition bead pull-down, measured: LINJ.10.0330; Leishmania donovani extract; 10 µM; reference: vehicle).
`CC(=O)NCCCC[C@@H]1NC(=O)[C@H](Cc2c[nH]c3c(C)cccc23)NC(=O)[C@H]([C@@H](C)O)NC(=O)[C@H](CC(N)=O)NC(=O)[C@@H](NC(C)=O)C(C)(C)SSC(C)(C)[C@@H](C(=O)N[C@@H](Cc2ccc(OCCN)cc2)C(=O)N[C@@H](Cc2ccc3ccccc3c2)C(=O)NC2(C(=O)N[C@@H](CCC(=O)O)C(=O)N[C@@H](CC(N)=O)C(=O)N[C@@H](Cc3cccnc3)C(=O)N(C)CC(N)=O)CCOCC2)NC1=O` gave an unbound fraction of 62.9 ± 3.7% (equilibrium dialysis; albumin plus glycoprotein; 1 µM, albumin 4%, glycoprotein 0.07%).
`CC[C@H](C)[C@H](NC(=O)[C@H](C)NC(=O)[C@H](C)NC(=O)[C@H](CCC(N)=O)NC(=O)CNC(=O)[C@H](CC(C)C)NC(=O)[C@H](Cc1c[nH]cn1)NC(=O)[C@H](CCCCN)NC(=O)[C@H](C)NC(=O)CNC(=O)[C@H](CCCCN)NC(=O)[C@H](CCCNC(=N)N)NC(=O)[C@H](CC(C)C)NC(=O)[C@H](Cc1c[nH]c2ccccc12)NC(=O)[C@H](CCCCN)NC(=O)[C@H](CCCCN)NC(=O)[C@H](Cc1c[nH]c2ccccc12)NC(=O)CN)C(=O)N[C@@H](CCCCN)C(=O)NCC(=O)N[C@@H](CC(C)C)C(=O)N[C@@H](C)C(=O)N[C@@H](CO)C(=O)O`: “chronic toxic concentration” 5 µM (zebrafish embryos 4 hpf, E3 medium; 24 h).
With `CN[C@H](CC(C)C)C(=O)N[C@H]1C(=O)N[C@@H](CC(N)=O)C(=O)N[C@H]2C(=N)N[C@H]3C(=O)N[C@H](C(=O)N[C@H](C(=O)NCCC[N+](C)(C)C)c4cc(O)cc(O)c4-c4cc3ccc4O)[C@H](O)c3ccc(c(Cl)c3)Oc3cc2cc(c3O[C@@H]2O[C@H](CO)[C@@H](O)[C@H](O)[C@H]2O[C@H]2C[C@](C)(NCc3ccc(-c4ccc(Cl)cc4)cc3)[C@H](O)[C@H](C)O2)Oc2ccc(cc2Cl)[C@H]1O` the MTD was at least 50 mg/kg (mouse).
`COC(=O)[C@H]1[C@@H](c2ccc(Cl)c(Cl)c2)C[C@@H]2CC[C@H]1N2Cc1ccc2cc3ccccc3cc2c1` has a pKa of 5.7 (fluorometric titration; 1 µM, 10% DMSO).
`Cc1nc2cccc(OCC(C)(C)C(=O)NC(C)C)c2c(N)c1C(=O)[O-].[Na+]` — result for “revertant colonies per plate”: 116 ± 13 (Salmonella typhimurium; TA100; 5.0 mg per plate, with S9, plate incorporation).
The body weight of `COc1cnc2cccc(N3CCc4c(cc(Cn5ccnc5)cc4-c4cn(C)nc4C(F)(F)F)C3=O)c2c1` is reported as 29.4 ± 0.8 g (CD-1 mice; intraperitoneal, 100 mg/kg once daily, day 3).
For `CN(C)[C@H]1C[C@@]23CC[C@@]4(O2)C(=CC[C@]2(C)[C@@H](c5ccc6ccncc6c5)CC[C@H]24)C=C3[C@@H](O)[C@@H]1O`, the inhibition was 2% (SNF-related serine/threonine-protein kinase (SNRK, Homo sapiens, UniProt Q9NRH2); ATP probe labelling, inhibitor, KiNativ profiling; 0.1 µM).
`CC[C@H](C)[C@H](NC(=O)[C@H](CCCCN)NC(=O)CNC(=O)[C@H](CC(C)C)NC(=O)[C@H](Cc1ccccc1)NC(=O)[C@H](CCCCN)NC(=O)[C@H](CO)NC(=O)[C@H](Cc1ccccc1)NC(=O)[C@H](Cc1c[nH]c2ccccc12)NC(=O)[C@H](CCC(N)=O)NC(=O)[C@@H](NC(=O)[C@H](Cc1ccccc1)NC(=O)CCCCCNC(=O)CN1CCN(CC(=O)O)CCN(CC(=O)O)CCN(CC(=O)O)CC1)C(C)C)C(=O)N[C@@H](CCC(=O)O)C(=O)N1CCC[C@H]1C(=O)N[C@@H](CC(=O)O)C(=O)N[C@H](C(=O)N[C@@H](CO)C(=O)N[C@@H](CCC(N)=O)C(=O)N[C@H](C(=O)N[C@@H](CCC(N)=O)C(=O)N[C@@H](CC(=O)O)C(=O)N1CCC[C@H]1C(=O)N[C@@H](CC(N)=O)C(=O)N[C@@H](CC(=O)O)C(=O)N[C@@H](CCC(N)=O)C(=O)N[C@@H](Cc1ccc(O)cc1)C(=O)N[C@@H](CCC(=O)O)C(=O)N1CCC[C@H]1C(=O)N[C@@H](Cc1ccccc1)C(=O)O)C(C)C)C(C)C` [copper-64 labelled] has an SUVmean of 2.95 SUV (dynamic PET; mouse both sexes, CT26 tumour, checkpoint inhibitor-treated, tumour; intravenous, 100 µCi/mouse, 450 s).
The tissue uptake of `CCCC[C@H]1C(=O)N(C)[C@@H](CCCC)C(=O)N[C@@H](CCCNC(=O)CN2CCN(CC(=O)O)CCN(CC(=O)O)CCN(CC(=O)O)CC2)C(=O)N[C@H](C(=O)NCC(N)=O)CSCC(=O)N[C@@H](Cc2ccc(O)cc2)C(=O)N(C)[C@@H](C)C(=O)N[C@@H](CC(N)=O)C(=O)N2CCC[C@H]2C(=O)N[C@@H](Cc2c[nH]cn2)C(=O)N[C@@H](CC(C)C)C(=O)N(C)CC(=O)N[C@@H](Cc2c[nH]c3ccccc23)C(=O)N[C@@H](CO)C(=O)N[C@@H](Cc2c[nH]c3ccccc23)C(=O)N1C` [gallium-68 labelled] is reported as 16.6 ± 5.65 %ID/g (NOD/SCID mice, CHO-hPD-L1 xenograft, liver; 60 min, with: blocking agent 50 µg co-injected).
For `CC(C)=CCC/C(C)=C/CCn1cc(CC(P(=O)(O)O)P(=O)(O)O)nn1`, “biliary excretion of dose” read “not detected” (CD-1 mice; intravenous, 0.3 mg/kg, 24 h).
`CCN(C)C(=O)Oc1ccccc1/C=C1\Cc2cc(OC)c(OC)cc2C1=O` has an AUC(0-inf) of 3390 ng·h/mL (male Sprague-Dawley rat, plasma; oral, 100 mg/kg, single dose).
For `CC[C@H](C)[C@H](NC(=O)[C@H](CC(C)C)NC(=O)CNC(=O)[C@H](Cc1c[nH]cn1)NC(=O)[C@@H](NC(=O)[C@H](Cc1c[nH]c2ccccc12)NC(=O)[C@H](CCCCN)NC(=O)CNC(=O)[C@@H](NC(=O)[C@H](Cc1c[nH]cn1)NC(=O)[C@H](Cc1c[nH]cn1)NC(=O)[C@@H](NC(=O)CNC(=O)[C@H](Cc1c[nH]cn1)NC(=O)[C@H](Cc1ccccc1)NC(=O)[C@H](CC(C)C)NC(=O)[C@H](CC(C)C)NC(=O)CNC(=O)[C@H](CC(C)C)NC(=O)[C@@H](N)Cc1ccccc1)C(C)C)C(C)C)[C@@H](C)CC)C(=O)N[C@@H](Cc1c[nH]cn1)C(=O)NCC(=O)N[C@@H](Cc1c[nH]cn1)C(=O)N[C@@H](Cc1c[nH]cn1)C(N)=O`, “chronic toxic concentration” read 5 µM (zebrafish embryos 4 hpf, E3 medium; 24 h).
For `CC[C@H](C)[C@H](NC(=O)[C@H](Cc1ccc(O)cc1)NC(=O)[C@@H](NC(=O)[C@H](CCCNC(=N)N)NC(=O)[C@@H](N)CC(=O)O)C(C)C)C(=O)N[C@@H](Cc1c[nH]cn1)C(=O)N1CCC[C@H]1C(=O)O`, the AUC was 908 ng·h/mL (Beagle dog, plasma; sc, 10 mg/kg/day, day 0, median).
